Results pooled from the literature.
Compare with care: the assays were run in different laboratories. Several values in a cell are separate wells, animals, samples, runs or records. ± marks the error that the study gave.
T1: riboswitch RNA, fused to Pepper aptamer; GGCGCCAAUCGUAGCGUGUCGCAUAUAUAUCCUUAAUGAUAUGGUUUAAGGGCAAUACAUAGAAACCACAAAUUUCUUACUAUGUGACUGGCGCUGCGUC
Sequence of UniProt P30531 (whole entry, looked up): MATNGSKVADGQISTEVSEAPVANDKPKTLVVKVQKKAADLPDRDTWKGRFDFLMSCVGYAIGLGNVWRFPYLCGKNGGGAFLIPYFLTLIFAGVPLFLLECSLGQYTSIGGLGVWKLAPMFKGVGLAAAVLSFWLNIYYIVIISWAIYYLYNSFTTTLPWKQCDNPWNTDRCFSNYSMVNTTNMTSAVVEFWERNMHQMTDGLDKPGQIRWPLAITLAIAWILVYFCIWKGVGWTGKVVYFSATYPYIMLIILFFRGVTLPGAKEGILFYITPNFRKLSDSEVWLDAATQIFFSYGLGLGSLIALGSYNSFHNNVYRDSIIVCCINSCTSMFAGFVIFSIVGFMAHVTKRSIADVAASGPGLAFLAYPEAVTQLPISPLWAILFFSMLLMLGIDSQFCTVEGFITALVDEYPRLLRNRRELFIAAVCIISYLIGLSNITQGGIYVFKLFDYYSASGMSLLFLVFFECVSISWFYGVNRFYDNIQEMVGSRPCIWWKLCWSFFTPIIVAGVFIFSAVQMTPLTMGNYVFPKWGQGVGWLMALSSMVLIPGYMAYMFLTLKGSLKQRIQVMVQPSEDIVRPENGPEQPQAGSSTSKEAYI
Sequence of UniProt P34972 (whole entry, looked up): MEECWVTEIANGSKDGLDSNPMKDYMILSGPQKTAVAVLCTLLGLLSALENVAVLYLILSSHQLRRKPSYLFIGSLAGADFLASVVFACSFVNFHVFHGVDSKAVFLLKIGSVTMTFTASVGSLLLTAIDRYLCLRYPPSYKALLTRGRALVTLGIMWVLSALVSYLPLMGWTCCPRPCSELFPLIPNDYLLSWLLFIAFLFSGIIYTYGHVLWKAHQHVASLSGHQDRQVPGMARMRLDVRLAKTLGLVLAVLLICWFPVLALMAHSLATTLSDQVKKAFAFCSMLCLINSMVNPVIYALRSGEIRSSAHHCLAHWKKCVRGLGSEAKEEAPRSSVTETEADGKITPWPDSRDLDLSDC
Sequence of UniProt P19491 (whole entry, looked up): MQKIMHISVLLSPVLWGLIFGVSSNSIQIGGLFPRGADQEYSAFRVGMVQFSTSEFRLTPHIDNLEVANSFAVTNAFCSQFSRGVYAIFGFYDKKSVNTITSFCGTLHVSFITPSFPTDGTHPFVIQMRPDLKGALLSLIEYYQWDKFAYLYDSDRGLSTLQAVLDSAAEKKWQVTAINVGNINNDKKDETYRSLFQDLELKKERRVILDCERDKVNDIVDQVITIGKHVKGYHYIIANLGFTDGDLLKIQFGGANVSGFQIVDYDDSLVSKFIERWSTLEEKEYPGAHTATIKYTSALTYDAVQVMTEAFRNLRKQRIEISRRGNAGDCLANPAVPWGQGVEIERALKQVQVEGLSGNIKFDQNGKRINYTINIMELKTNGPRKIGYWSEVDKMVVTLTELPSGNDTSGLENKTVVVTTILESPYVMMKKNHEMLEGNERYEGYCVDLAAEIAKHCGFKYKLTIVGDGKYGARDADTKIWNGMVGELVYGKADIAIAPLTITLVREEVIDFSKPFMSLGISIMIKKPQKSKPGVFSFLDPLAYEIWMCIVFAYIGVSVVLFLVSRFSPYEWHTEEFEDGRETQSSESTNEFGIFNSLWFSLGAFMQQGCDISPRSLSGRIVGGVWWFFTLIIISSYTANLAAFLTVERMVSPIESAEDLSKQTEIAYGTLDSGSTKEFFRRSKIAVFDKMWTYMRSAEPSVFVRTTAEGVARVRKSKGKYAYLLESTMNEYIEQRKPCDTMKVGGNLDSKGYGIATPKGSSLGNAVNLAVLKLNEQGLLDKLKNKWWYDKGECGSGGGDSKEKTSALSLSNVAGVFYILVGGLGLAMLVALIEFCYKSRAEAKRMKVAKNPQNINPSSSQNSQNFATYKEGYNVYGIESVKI
Sequence of UniProt Q9HB29 (whole entry, looked up): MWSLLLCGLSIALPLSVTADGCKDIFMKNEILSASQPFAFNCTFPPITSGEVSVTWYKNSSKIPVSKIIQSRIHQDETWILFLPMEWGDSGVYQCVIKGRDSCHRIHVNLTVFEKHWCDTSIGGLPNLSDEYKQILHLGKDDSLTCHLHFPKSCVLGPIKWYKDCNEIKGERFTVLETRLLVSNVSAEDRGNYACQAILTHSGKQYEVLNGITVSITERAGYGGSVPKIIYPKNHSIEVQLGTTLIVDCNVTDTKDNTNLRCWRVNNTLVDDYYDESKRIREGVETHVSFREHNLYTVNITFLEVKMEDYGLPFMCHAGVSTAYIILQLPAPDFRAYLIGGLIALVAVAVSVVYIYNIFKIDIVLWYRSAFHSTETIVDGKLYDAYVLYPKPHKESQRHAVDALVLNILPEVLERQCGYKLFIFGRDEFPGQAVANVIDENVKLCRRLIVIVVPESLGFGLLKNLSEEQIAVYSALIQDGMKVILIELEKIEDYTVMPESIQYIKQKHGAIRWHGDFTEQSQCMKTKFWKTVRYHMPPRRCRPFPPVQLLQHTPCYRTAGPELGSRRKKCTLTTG
Sequence of UniProt P55210 (whole entry, looked up): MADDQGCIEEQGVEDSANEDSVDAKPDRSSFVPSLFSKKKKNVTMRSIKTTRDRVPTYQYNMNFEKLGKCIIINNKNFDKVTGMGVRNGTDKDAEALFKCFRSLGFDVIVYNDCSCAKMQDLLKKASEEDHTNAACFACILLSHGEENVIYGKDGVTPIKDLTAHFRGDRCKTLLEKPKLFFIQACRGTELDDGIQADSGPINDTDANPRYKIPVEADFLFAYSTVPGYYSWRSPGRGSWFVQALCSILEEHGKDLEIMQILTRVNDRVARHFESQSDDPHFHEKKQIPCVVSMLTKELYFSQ
Sequence of UniProt P19484 (whole entry, looked up): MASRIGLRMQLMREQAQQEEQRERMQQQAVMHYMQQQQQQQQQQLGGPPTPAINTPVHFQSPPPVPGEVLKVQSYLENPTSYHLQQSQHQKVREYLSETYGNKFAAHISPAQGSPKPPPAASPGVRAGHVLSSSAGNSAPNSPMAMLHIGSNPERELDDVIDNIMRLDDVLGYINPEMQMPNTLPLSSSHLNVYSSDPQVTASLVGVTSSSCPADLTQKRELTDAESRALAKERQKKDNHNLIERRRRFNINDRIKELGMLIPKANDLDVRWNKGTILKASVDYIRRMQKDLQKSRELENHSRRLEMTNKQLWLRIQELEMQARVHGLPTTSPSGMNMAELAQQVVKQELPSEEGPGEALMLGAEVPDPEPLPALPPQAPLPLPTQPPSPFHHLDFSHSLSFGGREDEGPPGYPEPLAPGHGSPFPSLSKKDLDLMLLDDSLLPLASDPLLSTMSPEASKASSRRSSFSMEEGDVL
Sequence of UniProt Q13148 (whole entry, looked up): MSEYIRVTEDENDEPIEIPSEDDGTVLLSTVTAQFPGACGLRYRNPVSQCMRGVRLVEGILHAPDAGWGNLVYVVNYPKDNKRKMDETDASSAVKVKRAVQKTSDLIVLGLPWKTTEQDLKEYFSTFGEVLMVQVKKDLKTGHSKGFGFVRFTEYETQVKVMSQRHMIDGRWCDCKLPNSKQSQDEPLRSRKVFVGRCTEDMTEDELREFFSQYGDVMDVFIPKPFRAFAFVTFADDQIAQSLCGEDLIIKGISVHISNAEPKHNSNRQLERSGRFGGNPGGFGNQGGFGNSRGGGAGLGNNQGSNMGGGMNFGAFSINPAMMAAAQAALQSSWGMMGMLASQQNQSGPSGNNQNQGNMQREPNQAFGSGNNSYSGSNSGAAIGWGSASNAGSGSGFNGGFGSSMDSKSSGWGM
Sequence of UniProt Q8TDS7 (whole entry, looked up): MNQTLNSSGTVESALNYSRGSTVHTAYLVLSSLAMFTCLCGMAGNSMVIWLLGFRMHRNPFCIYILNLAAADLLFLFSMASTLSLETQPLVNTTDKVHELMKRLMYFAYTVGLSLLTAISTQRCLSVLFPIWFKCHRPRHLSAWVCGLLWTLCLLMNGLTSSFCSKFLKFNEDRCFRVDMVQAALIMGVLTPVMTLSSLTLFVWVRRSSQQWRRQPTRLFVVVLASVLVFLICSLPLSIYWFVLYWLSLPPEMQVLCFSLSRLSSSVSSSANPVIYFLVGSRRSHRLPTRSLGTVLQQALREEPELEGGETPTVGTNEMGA

For `COc1ccc(C(OCCN2CCCC(C(=O)O)C2)(c2ccc(OC)cc2)c2ccc(OC)cc2)cc1` (centres unmarked), the [3H]-GABA uptake was 4180 a.u. and 1110 a.u. and 4280 a.u. and 1520 a.u. and 1390 a.u. and 1320 a.u. and 1080 a.u. and 1070 a.u. (Sodium- and chloride-dependent GABA transporter 1 (SLC6A1, Homo sapiens, UniProt P30531); GABA transport, inhibitor, radioligand uptake; HEK293F transfected; 6.4 nM, 15 min pre, 45 min uptake, room temperature, with: [3H]-GABA 30 nM, GABA 25 µM; higher = more uptake).
The current amplitude of `COC(=O)Cc1cc2c(cc1C(=O)c1ccccc1Cl)OCO2` is reported as 552 ± 39 pA (Glutamate receptor 2 (Gria2, Rattus norvegicus, UniProt P19491); glutamate-evoked current, whole-cell patch clamp; HEK-293T; concentration not given, pH 7.4, holding potential -60 mV, with: 10 mM glutamate).
`CC(C)(C(=O)N1CCC(Nc2nc3c(c(=O)[nH]2)CCCC3)CC1)c1ccc(Cl)cc1` gave a Hill slope of 0.84 (MRGPRD (Homo sapiens, UniProt Q8TDS7); miniGq recruitment, agonist, BRET1; HEK293T).
The Ki ratio of `CCOC(=O)C(CC)(CCCSCCOCCOCCOCCOCCN)NC(=O)c1ccc(C2CC2)c(Cc2ccc(F)cc2)n1` (centres unmarked) is reported as 63 (Cannabinoid receptor 2 (CNR2, Homo sapiens, UniProt P34972); radioligand binding; baseline: CB1 over CB2 (human)).
Under “number of kinases hit”, `CC(C)(C#N)c1ccc(-c2cnc(Nc3cnccn3)nc2Cl)cc1` is recorded as 1 (human kinase panel; binding, KINOMEscan; 10000 nM, %Ctrl below 10).
The kinact/KI of `CC(=O)N1[C@H](C(=O)N[C@H](C(=O)N[C@@H](Cc2c[nH]cn2)C(=O)N[C@@H](CC(=O)O)C(=O)COC(=O)c2c(C)cccc2C)C(C)(C)C)C[C@@H]2CCCC[C@@H]21` is reported as 700 M⁻¹ s⁻¹ (Caspase-7 (CASP7, Homo sapiens, UniProt P55210); enzyme activity, inhibitor).
Under binding, `Nc1nc2c(ncn2[C@H]2C[C@H](O)[C@@H](CO)O2)c(=O)[nH]1` is recorded as “binds” (T1, riboswitch RNA, fused to Pepper aptamer; fluorescence; 5 µM, strongest response).
`CC1=NN(c2ccc(C)c(C)c2)C(=O)/C1=N\Nc1cccc(-c2cccc(C(=O)NCCOCCOCCNC(=O)CCCC[C@@H]3SC[C@@H]4NC(=O)N[C@@H]43)c2)c1O` gave a koff of 0.0108 ± 0.00012 s⁻¹ (Transcription factor EB, bHLH-LZ domain (TFEB, Homo sapiens, UniProt P19484); binding, SPR; compound immobilised on SA chip).
With `CN1CCN(c2ccc(NC(=O)c3cc(-c4ccccc4)n(-c4ccccc4)n3)cc2)CC1` the inhibition was 52% (Genome polyprotein, NS2B-NS3 protease (dengue virus type 2, UniProt P29990); enzyme activity, fluorogenic AMC substrate; 50 µM).
`Cc1ccc(C(=O)NC(C)c2cccc(-c3ccncc3)c2)cn1` (centres unmarked): “number of kinases hit” 0 (human kinase panel; binding, KINOMEscan; 10000 nM, %Ctrl below 10).
`N#Cc1cnc2sc(C(=O)O)cc2c1N1CCc2[nH]nc(C(=O)N[C@@H](CC(=O)NCCOCCN3CCOCC3)c3cccc(Br)c3)c2C1` gave a remaining activity of 64.5% (Interleukin-1 receptor-like 2 (IL1RL2, Homo sapiens, UniProt Q9HB29); reporter gene (SEAP), inhibitor, HEK-Blue IL-36R reporter; HEK-Blue IL-36R cells; 1.23 µM, 6 h, with: IL36A 0.01 ng/mL).
For `O=C1c2sc(-c3ccc(N4CCC(F)C4)nc3F)nc2CCN1c1cccnc1` (centres unmarked), the specific binding was 3 pM (TAR DNA-binding protein 43, aggregated (TARDBP, Homo sapiens, UniProt Q13148); radioligand binding; control brain sarkosyl-insoluble extract; 4.94 nM).
`O=C(NO)c1ccc(Cn2c3c(c4cc(Br)ccc42)SC(c2ccccc2)C3)s1` (racemic) gave an interatomic distance of 3.95 Å (Histone deacetylase 8 (Schistosoma mansoni, UniProt A5H660); X-ray crystallography; ligand-Lys20 side chain, chain B, BR1-CD).
`O=c1[nH]c(=O)c2nc(O)cnc2[nH]1` gave a Km of 17.5 ± 2.2 µM (lumazine dehydrogenase, Cupriavidus sp. LA-1; pH 7.5).

Excerpt of the above:
`CC1=NN(c2ccc(C)c(C)c2)C(=O)/C1=N\Nc1cccc(-c2cccc(C(=O)NCCOCCOCCNC(=O)CCCC[C@@H]3SC[C@@H]4NC(=O)N[C@@H]43)c2)c1O` gave a koff of 0.0108 ± 0.00012 s⁻¹ (Transcription factor EB, bHLH-LZ domain (TFEB, Homo sapiens, UniProt P19484); binding, SPR; compound immobilised on SA chip).
With `CN1CCN(c2ccc(NC(=O)c3cc(-c4ccccc4)n(-c4ccccc4)n3)cc2)CC1` the inhibition was 52% (Genome polyprotein, NS2B-NS3 protease (dengue virus type 2, UniProt P29990); enzyme activity, fluorogenic AMC substrate; 50 µM).
